Assay results from different studies.
± marks the error that the study gave.

Structure (SMILES) | assay | system | conditions | half-life
CCS(=O)(=O)N1CC(CC#N)(n2cc(-c3ncnc4[nH]ccc34)cn2)C1 | – | healthy Chinese human, plasma | oral, 2 to 10 mg | 342 to 438 min
CCCOc1ccc([C@H]2CNC(=O)N2c2ccc3[nH]cnc3c2)cc1 | – | human, fasted, elderly, CSF | oral, 300 mg twice daily, capsule, day 7, geometric mean | 373 min
C[C@@H]1CCC[C@H](n2cnc(-c3cc(Cl)ccc3-n3cc(Cl)nn3)cc2=O)c2cc(ccn2)-c2c(cnn2C(F)F)NC1=O | – | human | 200 mg twice daily, day 14 | 708 min
CN(C)C(=O)c1cc2cnc(Nc3ccc(N4CCNCC4)cn3)nc2n1C1CCCC1 | – | human, mild renal impairment, plasma | oral, 400 mg, geometric mean | 2450 min
CCCCC1(CCCC)CN(c2ccccc2)c2cc(SC)c(OCC(=O)N[C@@H](C(=O)NCC(=O)O)c3ccccc3)cc2S(=O)(=O)C1 | LC-MS/MS | human, plasma | oral, 10 mg, single dose, before breakfast | 133 min
NS(=O)(=O)OC[C@@H]1C[C@@H](n2ccc3c(N[C@H]4CCc5ccccc54)ncnc32)C[C@@H]1O | – | human | iv, 8 mg/m^2 single dose, day 8, mean, together with: fluconazole | 702 min
CNC(=O)c1c(C)oc2cc(Oc3ncnc4cc(OC)c(OC)cc34)ccc12 | – | human, plasma | oral, 5 mg, fasted, together with: rabeprazole 40 mg | 2180 min
Cc1ccc(NC(=O)c2ccc(CN3CCN(C)CC3)cc2)cc1Nc1nccc(-c2cncc(-c3oncc3C)c2)n1 | – | older healthy human adults, plasma | oral, 125 mg single dose, fed, mean | 1810 min
C[C@H](N)C(=O)N1C[C@H](CCCB(O)O)[C@](N)(C(=O)O)C1 | – | human, plasma | oral, 150 mg twice daily, cycle 1 day 15 | 420 ± 102 min
CCCC[C@H](NC(C)=O)C(=O)N[C@H]1CCC(=O)NC[C@@H](C(=O)N[C@@H](Cc2c[nH]c3ccccc23)C(N)=O)NC(=O)[C@H](CCCNC(=N)N)NC(=O)[C@@H](Cc2ccccc2)NC(=O)[C@H](Cc2c[nH]cn2)NC1=O | – | healthy human volunteers, plasma | subcutaneous, 1.0 mg once daily, day 1 | 258 min
C=CC(=O)N1CCC([C@@H]2CCNc3c(C(N)=O)c(-c4ccc(Oc5ccccc5)cc4)nn32)CC1 | – | human | oral, 480 mg single dose, mean | 660 min
CC(C)(Sc1ccncc1-c1ccc(C#N)c2ccccc12)C(=O)O | – | human | oral, 5 mg, together with: febuxostat 40 mg | 792 min
N#CCNC(=O)c1ccc(-c2ccnc(Nc3ccc(N4CCOCC4=O)cc3)n2)cc1 | – | human, plasma | oral, 200 mg momelotinib once daily, cycle 1 day 15, median, together with: trametinib 1.0 mg once daily | 744 min
CO[C@H]1C[C@@H]2CC[C@@H](C)[C@@](O)(O2)C(=O)C(=O)N2CCCC[C@H]2C(=O)O[C@H]([C@H](C)C[C@@H]2CC[C@@H](O)[C@H](OC)C2)CC(=O)[C@H](C)/C=C(\C)[C@@H](O)[C@@H](OC)C(=O)[C@H](C)C[C@H](C)/C=C/C=C/C=C/1C | – | human, whole blood | oral, 25 mg, together with: grapefruit juice | 2400 min
O=CC[C@@H](O)[C@H](O)[C@H](O)CO | HPLC-fluorescence | human patients, plasma | oral, 30 mg/kg/day, cycle 1 | 270 ± 36 min
CCOc1ccc(Cc2cc([C@@H]3S[C@H](CO)[C@@H](O)[C@H](O)[C@H]3O)c(OC)cc2C)cc1 | – | human, plasma | oral, 5 mg/day, day 1, multiple dose before breakfast | 630 ± 121 min
CC#CC(=O)NCCCC(=O)c1nc(-c2ccc(C(=O)Nc3ccccn3)cc2)c2c(N)nccn12 | – | human, healthy control, plasma | oral, 50 mg acalabrutinib, single, arithmetic mean | 642 ± 234 min
CC[C@@H]1C(=O)N(C)c2cnc(Nc3ccc(C(=O)N[C@H]4CC[C@H](N5CCN(CC6CC6)CC5)CC4)cc3OC)nc2N1C(C)C | – | human, plasma | intravenous infusion, 200 mg over 2 h, first infusion, geometric mean | 8340 min

Repeated from above:
Structure (SMILES) | assay | system | conditions | half-life
CCCC[C@H](NC(C)=O)C(=O)N[C@H]1CCC(=O)NC[C@@H](C(=O)N[C@@H](Cc2c[nH]c3ccccc23)C(N)=O)NC(=O)[C@H](CCCNC(=N)N)NC(=O)[C@@H](Cc2ccccc2)NC(=O)[C@H](Cc2c[nH]cn2)NC1=O | – | healthy human volunteers, plasma | subcutaneous, 1.0 mg once daily, day 1 | 258 min
C=CC(=O)N1CCC([C@@H]2CCNc3c(C(N)=O)c(-c4ccc(Oc5ccccc5)cc4)nn32)CC1 | – | human | oral, 480 mg single dose, mean | 660 min
